Published values gathered from unrelated publications.
Lines come from different studies, so protocols differ. Numbers after ± are the reported error.
UniProt P06276, sequence (whole entry, looked up): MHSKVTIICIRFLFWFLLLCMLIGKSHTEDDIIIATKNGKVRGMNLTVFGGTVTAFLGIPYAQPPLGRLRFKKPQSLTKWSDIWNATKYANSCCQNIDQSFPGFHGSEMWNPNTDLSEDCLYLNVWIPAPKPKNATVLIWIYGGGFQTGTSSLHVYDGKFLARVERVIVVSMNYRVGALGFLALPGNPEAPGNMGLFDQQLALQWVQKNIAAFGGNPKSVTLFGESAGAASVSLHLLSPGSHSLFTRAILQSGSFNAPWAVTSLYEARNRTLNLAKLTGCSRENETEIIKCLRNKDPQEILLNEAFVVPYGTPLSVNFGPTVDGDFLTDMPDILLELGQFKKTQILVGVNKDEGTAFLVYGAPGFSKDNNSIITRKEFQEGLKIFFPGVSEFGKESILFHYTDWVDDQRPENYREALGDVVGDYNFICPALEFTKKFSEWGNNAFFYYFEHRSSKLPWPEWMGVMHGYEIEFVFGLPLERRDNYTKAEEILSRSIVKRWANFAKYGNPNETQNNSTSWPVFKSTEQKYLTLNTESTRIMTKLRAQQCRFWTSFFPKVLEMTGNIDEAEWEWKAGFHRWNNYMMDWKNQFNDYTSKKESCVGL
UniProt Q13011, sequence (whole entry, looked up): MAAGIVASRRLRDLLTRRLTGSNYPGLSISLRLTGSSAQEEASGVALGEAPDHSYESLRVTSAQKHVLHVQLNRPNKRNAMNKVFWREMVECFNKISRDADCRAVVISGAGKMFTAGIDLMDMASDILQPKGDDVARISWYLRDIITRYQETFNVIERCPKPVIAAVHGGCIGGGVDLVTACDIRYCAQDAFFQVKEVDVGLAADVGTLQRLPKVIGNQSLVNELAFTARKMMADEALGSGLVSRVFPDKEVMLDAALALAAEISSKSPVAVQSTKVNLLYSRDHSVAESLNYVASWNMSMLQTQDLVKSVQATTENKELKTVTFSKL

| Compound | tested on | test | system | setting | scale | measurement | result |
| --- | --- | --- | --- | --- | --- | --- | --- |
| [O-][S+]1CCc2nc(N3CCC(c4ncc(Cl)cn4)CC3)nc(NC3(CO)CCC3)c21 (centres unmarked) |  | phase I trial, item: oral hypoaesthesia | healthy male volunteers | dose not given, single rising dose, all cohorts |  | subjects with adverse events | 0% |
| CN1CC[C@@H](c2c(O)cc(O)c3c(=O)cc(-c4ccc(C(F)(F)F)cc4Cl)oc23)[C@@H]1CO |  | item: Thrombocytopenia | relapsed B-cell malignancies | oral, 150 mg, grade 3-4, intermittent dosing |  | patients with adverse event | 0% |
| CC[C@]1(O)C[C@H]2CN(CCc3c([nH]c4ccccc34)[C@@](C(=O)OC)(c3cc4c(cc3OC)N(C=O)[C@H]3[C@@](O)(C(=O)OC)[C@H](OC(C)=O)[C@]5(CC)C=CCN6CC[C@]43[C@@H]65)C2)C1 | Plasmodium falciparum |  | 7G8 |  |  | IC50 | 1000 nM |
| Clc1ccc(-c2ccc(Cl)cc2Cl)cc1 |  |  | fresh water | 20 °C, S30-1 sampler, 30 µm |  | log K(PDMS-water) | 5.23 ± 0.05 |
| Cc1ccccc1C(=O)NN=Cc1ccc(O)c(Br)c1 |  |  | normal C3H/HeN mouse, plasma | intraperitoneal, 0.8 mg/kg |  | AUC(0-t) | 88.8 ng·h/mL |
| CC1=C(O)C(=O)C=C2C1=CC=C1[C@@]2(C)CC[C@@]2(C)[C@@H]3C[C@](C)(C(=O)O)CC[C@]3(C)CC[C@]12C |  |  | Sprague-Dawley rat pups, multiple-hit infantile spasms model | i.p., 4 mg/kg, PN5, CELA-4 arm | reference: vehicle | body weight decrease | 1.69 g |
| Cn1cncc1-c1c(F)cncc1NC(=O)c1c(N)nn2cc(F)cnc12 |  |  | human patients | oral, dose not given, 21 days, all doses |  | platelet count decreased DLT | 2% |
| CCOc1cc(Oc2ccc(C(F)(F)F)cc2Cl)ccc1[N+](=O)[O-] |  |  | rat, male | 250 mg/kg, 4 days |  | body weight gain | 26.3% |
| CC(C)CC(=O)OC[C@H]1O[C@@](C#N)(c2ccc3c(N)ncnn23)[C@H](O)[C@@H]1O |  |  | human plasma | 90 µM |  | fraction unbound | 0.184 |
| CO[C@H]1C[C@@H]2CC[C@@H](C)[C@@](O)(O2)C(=O)C(=O)N2CCCC[C@H]2C(=O)O[C@H]([C@H](C)C[C@@H]2CC[C@@H](OC(=O)NCCOCCOCCOCCOCCOCCOCCOCCOCCC(=O)N3CCc4cc(Cn5nc(-c6ccc7oc(N)nc7c6)c6c(N)ncnc65)ccc4C3)[C@H](OC)C2)C[C@@H](O)[C@H](C)/C=C(\C)[C@@H](O)[C@@H](OC)C(=O)[C@H](C)C[C@H](C)/C=C/C=C/C=C/1C |  | phase 1 dose escalation, item: nausea | advanced solid tumour patients | intravenous, 12 mg weekly, grade ≥3 |  | TRAE incidence | 0% |
| CC[C@H](C)[C@H](NC(=O)[C@H](CC(C)C)NC(=O)[C@H](Cc1c[nH]c2ccccc12)NC(=O)[C@H](CCC(N)=O)NC(=O)[C@@H](NC(=O)[C@H](Cc1ccccc1)NC(=O)[C@H](C)NC(=O)[C@H](CCCCNC(=O)COCCOCCNC(=O)COCCOCCNC(=O)CC[C@H](NC(=O)CCCCCCCCCCCCCCCCCCC(=O)O)C(=O)O)NC(=O)[C@H](CCC(N)=O)NC(=O)[C@H](C)NC(=O)[C@@H](NC(=O)[C@H](CCCCN)NC(=O)[C@H](CC(=O)O)NC(=O)[C@H](CC(C)C)NC(=O)C(C)(C)NC(=O)[C@@H](NC(=O)[C@H](CO)NC(=O)[C@H](Cc1ccc(O)cc1)NC(=O)[C@H](CC(=O)O)NC(=O)[C@H](CO)NC(=O)[C@@H](NC(=O)[C@H](Cc1ccccc1)NC(=O)[C@@H](NC(=O)CNC(=O)[C@H](CCC(=O)O)NC(=O)C(C)(C)NC(=O)[C@@H](N)Cc1ccc(O)cc1)[C@@H](C)O)[C@@H](C)O)[C@@H](C)CC)[C@@H](C)CC)C(C)C)C(=O)N[C@@H](C)C(=O)NCC(=O)NCC(=O)N1CCC[C@H]1C(=O)N[C@@H](CO)C(=O)N[C@@H](CO)C(=O)NCC(=O)N[C@@H](C)C(=O)N1CCC[C@H]1C(=O)N1CCC[C@H]1C(=O)N1CCC[C@H]1C(=O)N[C@@H](CO)C(N)=O |  |  | human, plasma | subcutaneous, 15 mg, week 8, geometric mean |  | Vz/F | 5.61 L |
| COCC(=O)O[C@]1(CCN(C)CCCc2nc3ccccc3[nH]2)CCc2cc(F)ccc2[C@@H]1C(C)C | Plasmodium falciparum |  | 7G8 |  |  | IC50 | 2000 nM |
| O=[N+]([O-])c1cc2c3c(ccc2c2ccccc12)[C@@H](O)[C@H](O)C=C3 |  | item: adenoma mammary tumours | female Sprague-Dawley rats | intramammary, 12.3 µmol per rat, up to 32 weeks |  | tumours per rat | 0.17 ± 0.67 |
| CC(C)C[C@@H]1NC(=O)CNC(=O)[C@H](CC(N)=O)NC(=O)[C@H](CCCNC(=N)N)NC(=O)[C@H]([C@@H](C)O)NC(=O)[C@@H]2CSSC[C@@H]3NC(=O)[C@H]([C@@H](C)O)NC(=O)CNC(=O)CNC(=O)[C@H](C(C)C)NC(=O)[C@@H]4CSSC[C@H](NC(=O)[C@H]([C@@H](C)O)NC(=O)[C@H](CSSC[C@H](NC(=O)[C@H](CCCCN)NC(=O)[C@@H]5CCCN5C1=O)C(=O)NCC(=O)N[C@@H](CCC(=O)O)C(=O)N[C@@H]([C@@H](C)O)C(=O)N4)NC(=O)CNC(=O)[C@@H]1CCCN1C(=O)[C@H]([C@@H](C)O)NC(=O)[C@H](CC(N)=O)NC3=O)C(=O)N[C@@H](CO)C(=O)N[C@@H](Cc1c[nH]c3ccccc13)C(=O)N1CCC[C@H]1C(=O)N[C@@H](C(C)C)C(=O)N2 |  | HPLC | ammonium bicarbonate 0.1 M | 180 µM, 14 days, pH 9.0, 37 °C, deamidation stability |  | remaining peptide | 48.1 ± 13.6% |
| Nc1c2c(nc3c1CCC3)CCCC2 | Cholinesterase (BCHE, Homo sapiens, UniProt P06276) | inhibitor, fluorometric |  |  |  | IC50 | 250 ± 160 nM |
| O=S(=O)(Nc1ccccc1)c1ccc(NC(=S)Nc2ccccc2)cc1 |  | item: MO% | female mouse, blood | oral, 20 mg/kg daily, 14 days |  | blood cell fraction | 2.52% |
| COc1cc2c(Oc3ccc4[nH]c(C)cc4c3F)ccnc2cc1OCC1(N)CC1 |  |  | paediatric recurrent refractory sarcoma | 8 mg |  | grade 1 or 2 Epistaxis | 0% |
| CCc1ccc(CC/C=C/c2ccc3c(c2)C(=O)CC3)cc1 |  |  | Sprague-Dawley rat, male | oral, 30 mg/kg/day, 14 days |  | Glucose | 5.14 mM |

| Compound | tested on | test | system | setting | scale | measurement | result |
| --- | --- | --- | --- | --- | --- | --- | --- |
| C1=Cc2nc1cc1ccc([n-]1)c(-c1ccccc1)c1nc(cc3ccc([n-]3)c2-c2ccccc2)C=C1.CC(=O)[O-].[Mn+3] |  | LC-MS/MS | Sprague-Dawley rat, plasma | oral gavage, dose not given, 60 min, individual rat Rat1 |  | plasma concentration | 38 ng/mL |
| Clc1ccc(Cl)c(-c2cc(Cl)ccc2Cl)c1 |  |  | Sprague Dawley rat | intraperitoneal, 100 mg/kg, 3 weeks |  | body weight | 175 g |
| Clc1cc(Cl)c(-c2cc(Cl)c(Cl)c(Cl)c2Cl)cc1Cl |  |  | PDMS-water partitioning | PCB compilation | reference: maximum over minimum K | literature range factor | 2 |
| CC1(C)C(C=C(Cl)Cl)C1C(=O)OC(C#N)c1ccc(F)c(Oc2ccccc2)c1 (centres unmarked) |  | item: CYP2C19 | human, age 5 years, recombinant human CYP2C19 | 0.1 µM |  | enzyme contribution to clearance | 0.6% |
| Clc1cc(-c2cc(Cl)c(Cl)c(Cl)c2)cc(Cl)c1Cl |  |  | fresh water | 20 °C, S30-1 sampler, 30 µm |  | log K(PDMS-water) | 6.27 ± 0.08 |
| C[C@@H](NC(=O)N1C(=O)[C@H](Cc2ccnc(N)c2)[C@H]1C(=O)O)C1CCCCC1 |  |  | healthy adult Chinese volunteers | continuous intravenous infusion, 1.0 mg/kg/h, 5-day infusion, CTCAE 5.0 grading |  | incidence of hypokalemia | 12.5% |
| O[C@H]1CCCN[C@@H]1CCCn1cnc2c(Cl)c(Cl)ccc21 |  |  | healthy humans, plasma | oral, 150 mg twice daily |  | Cmax at steady state | 287 ng/mL |
| CC/C(=C(\c1ccccc1)c1ccc(OCCN(C)C)cc1)c1ccccc1 |  |  | CD-1 mouse, male, lung | intraperitoneal, 1 mg/kg |  | Tmax | 6 h |
| NC(=O)[C@H]1CCN(c2ncnc(N)c2F)C[C@@H]1N1CCC[C@@H](Nc2cc(Cl)cc(C(F)(F)F)c2)C1=O |  |  | B-cell malignancy patients | oral, 410 mg twice daily, dose |  | any grade ≥3 adverse event | 0% |
| CCN(CCO)CCCC(C)Nc1ccnc2cc(Cl)ccc12 (centres unmarked) |  |  | newly diagnosed glioblastoma patients | oral, 800 mg/dose, grade 4, together with: radiotherapy and temozolomide |  | white cell decrease patients | 66% |
| Cn1ncc(-c2nc(N[C@H]3CC[C@H](N)CC3)ncc2Cl)c1CC1CC1 |  | item: sepsis grade 3 or higher | human patients phase I | dose not given |  | adverse event incidence | 13% |
| CC(C)[C@@H]1NC(=O)CNC(=O)[C@H](CC(N)=O)NC(=O)[C@H](CCCNC(=N)N)NC(=O)[C@H](Cc2ccc(O)cc2)NC(=O)[C@H](C(C)C)NC(=O)[C@@H](NC(=O)[C@@H](NC(=O)[C@H](CC(N)=O)NC(=O)[C@H](Cc2c[nH]c3ccccc23)NC(=O)[C@H](C)NC(=O)[C@H](Cc2ccccc2)NC(=O)CN)C(C)C)CSSC[C@@H](C(=O)N[C@@H](Cc2c[nH]cn2)C(=O)N[C@@H](CCCNC(=N)N)C(=O)N[C@@H](CCCNC(=N)N)C(=O)N[C@@H](C)C(=O)N[C@@H](CC(N)=O)C(N)=O)NC(=O)[C@H](C(C)C)NC(=O)[C@H](CCCNC(=N)N)NC1=O |  | circular dichroism, item: β-Turn | PBS | 80 µM, pH 7.4, together with: LTA 1 µM |  | secondary structure content | 21.2% |
| COc1ccc2nc3cc(Cl)ccc3c(Nc3cc(CN4CCCC4)c(O)c(CN4CCCC4)c3)c2n1 |  |  | mouse, blood | intraperitoneal, 28 mg/kg |  | haematocrit | 44% |
| C[C@H]1CN(c2n[nH]c3nc(N[C@H]4CC[C@H](NS(=O)(=O)CCC(F)(F)F)CC4)ncc23)CCO1 | Delta(3,5)-Delta(2,4)-dienoyl-CoA isomerase, mitochondrial (Homo sapiens, UniProt Q13011) | biochemical |  |  |  | IC50 | ≥ 20000 nM |
| CN1CCN(c2ccc(Nc3nccc(-c4ccc(Cl)cc4)n3)cc2C(F)(F)F)CC1 |  |  | Danio rerio embryos | 5 µM, 5 d |  | toxicity | 100% |
| COc1ncccc1-c1cnn2ccc(N3CCN(C(=O)OC(C)C)CC3)nc12 |  |  | rat, STZ model, plasma | oral, 1 mg/kg, 240 min |  | free drug concentration | 2.3 nM |
| COc1ccc(-c2c(-c3ccc(C#N)c(F)c3)nc(N3CCC(N)CC3)n(C)c2=O)cc1F |  | item: Nausea | relapsed/refractory marginal zone lymphoma patients | oral, 60 mg, any grade, dose expansion |  | treatment-related adverse event incidence | 0% |

Repeated from above:
| Compound | tested on | test | system | setting | scale | measurement | result |
| --- | --- | --- | --- | --- | --- | --- | --- |
| CCc1ccc(CC/C=C/c2ccc3c(c2)C(=O)CC3)cc1 |  |  | Sprague-Dawley rat, male | oral, 30 mg/kg/day, 14 days |  | Glucose | 5.14 mM |
| CCOc1cc(Oc2ccc(C(F)(F)F)cc2Cl)ccc1[N+](=O)[O-] |  |  | rat, male | 250 mg/kg, 4 days |  | body weight gain | 26.3% |
| NC(=O)[C@H]1CCN(c2ncnc(N)c2F)C[C@@H]1N1CCC[C@@H](Nc2cc(Cl)cc(C(F)(F)F)c2)C1=O |  |  | B-cell malignancy patients | oral, 410 mg twice daily, dose |  | any grade ≥3 adverse event | 0% |
| CN1CC[C@@H](c2c(O)cc(O)c3c(=O)cc(-c4ccc(C(F)(F)F)cc4Cl)oc23)[C@@H]1CO |  | item: Thrombocytopenia | relapsed B-cell malignancies | oral, 150 mg, grade 3-4, intermittent dosing |  | patients with adverse event | 0% |
